Experimental data from different studies.
Every numbered part comes from another study and shows a few of its results, in no order.
Chain of UniProt Q9C0B0 (30-357, looked up): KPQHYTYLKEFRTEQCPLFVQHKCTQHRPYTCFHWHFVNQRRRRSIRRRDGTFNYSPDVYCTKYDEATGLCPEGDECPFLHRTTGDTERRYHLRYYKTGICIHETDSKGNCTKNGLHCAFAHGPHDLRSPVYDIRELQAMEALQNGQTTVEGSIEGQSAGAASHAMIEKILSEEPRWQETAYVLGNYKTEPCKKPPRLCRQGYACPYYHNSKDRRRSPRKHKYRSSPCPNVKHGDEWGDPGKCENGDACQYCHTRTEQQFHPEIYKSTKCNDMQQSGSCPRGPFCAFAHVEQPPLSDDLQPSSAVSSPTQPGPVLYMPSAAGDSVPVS

Block 1 — method: RNA Bind-n-Seq; molecule type: RNA; matrix: in vitro; concentration: 365 nM; reference: no-protein control; direction: higher = stronger binding; measurement: RBNS enrichment (R)
Target: RNA binding protein fox-1 homolog 2, RRM domain, GST-SBP tag (RBFOX2, Homo sapiens, UniProt O43251-10, residues 100-194)
Setting: natural RNA segment, single round, ends assumed
Constant ends, left off below: GGGAGUUCUACAGUCCGACGAUC … UGGAAUUCUCGGGUGCCAA
Construct (chain): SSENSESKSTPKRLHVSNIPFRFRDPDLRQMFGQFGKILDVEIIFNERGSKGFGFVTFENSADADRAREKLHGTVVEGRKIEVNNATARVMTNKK
CUGCAGCCUGGAGGUGUCCAAGGAUUCCCGUACAGUGACUGUGUCUCACCGCCCACAACCCUAUCGCUGGAGCUGUGAGAGGUUUUCUACCAGCCAGGUCUUAUGUUCCC: 0.382
CCGGCUCUGCUUCCCCAGGAUCUUUGGGUGGUGCUAUCUCCUGCCUCUUGGAGCUCCUGGCGCUCCCCACCCGGUGUCCCCAGUGGAAGGGAUGGGGUGAAGCCCAGAGU: 0.535
GAUAGAGCAGGGCAUGGGUGCUGGCCUCAGUGCUCAGCCUGCUCUUUAAUAAAGGUACCUCUUUUCUAGCCAUGUCGGAAUGAGUGGAGAAGAGGAGGGUGGGACACAGG: 0.403
CUUUGAGCUAGGGGAGGAGAAUGUAUUAGACUAAAUACAAACUGCGGGGUUGUAAGGGAGUCUCAGAACCUCACUGAAUCCUUCACUCCAGUUAAUGGCACUGCUCACUU: 0.282
CUAUUUGUUCAGAGAGGCCUUUUGUUUAAAUAUAAAUGUUUAAAUAUAAAUGUUUGUCUGGAUUGGCUAUAACAUGUCUUUCAGCAUUAGGCUUUUAAGAAACACAGGGU: 0.455
AUCAUAUUCUGUGCUUUUUCAAUCACUAGUGCAGAAUAGGCUGCAUUUGACACAGACUGUUAGGCAAUAUUGAUUUUUUUGUUUUGUUUUUAUUUGGUUUUAUCUGAGAU: 2.95
AAUUUAAACAAAAAUCUGAACUCUCAAAAGUCUAUUUUUCUAAACUGAAAAUGUAAAUUUAUACAUCUAUUCAGGAGUUGGAGUGUUGUGGUUACCUACUGAGUAGGCUG: 0.425
GUGUAAAAAAAUUUAAACAAGUGUUAACUUUAAACAGUUCGCUACAAGUAAAUGAUUAUAAAUACUACCUUCUGGGUUAAGAAAAUUCCAUUCAAAUAACAUUCUCAUGU: 0.45

Block 2 — method: protein-binding microarray; molecule type: double-stranded DNA, one strand shown; matrix: in vitro; concentration: 250 nM; setting: 60-bp whole probe; together with: salmon DNA 0.4 mg/ml; reference: random background probes; direction: higher = stronger binding; measurement: log fluorescence; constant ends, left off below: GCCTAGCAC … GTCTTGATTCGCTTGACGCTGCTG
Target: Interferon regulatory factor 5, full length, phosphomimetic (IRF5, Homo sapiens, UniProt Q13568-2, residues 1-514, K96S/S451D/S453D/S456D/S462D)
GACGGCCTGCTTCTCCTGACGTGCTAG: -0.583 z-score
GACGGTATCCTACGGCTGACGTGCTAG: -0.177 z-score
AAATTCTATTCTCTCAATTTGTGCTAG: 1.24 z-score
TCACATCTTGTTCCCAGACTGTGCTAG: 0.285 z-score
GTTTTTTGGTTTCTGGTTTAGTGCTAG: 4.28 z-score
TCACTTAGGTTTTCTGGTACTGTGCTA: 0.754 z-score
TTAGGTCTCCGTATCGGTTAGTGCTAG: 3.74 z-score
AAATGTGTTAGAAACAGGTTGTGCTAG: 0.157 z-score
TTGAAAAAATATTTATTTCAGTGCTAG: 1.36 z-score
TTAGGTTTTCTTATCCTTTAGTGCTAG: 0.656 z-score
TTAGATTTCAGACGGGATTAGTGCTAG: 0.307 z-score
TATTGTGCAATTAGAGCCCTGTGCTAG: 0.104 z-score
CCACTTTTATTTTCAGTATTGTGCTAG: 3.83 z-score
TTAGGACTGCTTCTCGTTTAGTGCTAG: -0.0899 z-score
GGTCTTCTGGGCTGTTTGGTTGTGCTA: -0.438 z-score
CTTTTTAGAAATTTCTTTCTGTGCTAG: 2.37 z-score
TTAGGTCTCGGACTAGGTTAGTGCTAG: -0.171 z-score
GCACTCTTCTTTTTTTTCTTGTGCTAG: 0.869 z-score
TTAGGTCTCCTTATCCTTCAGTGCTAG: -0.166 z-score

Block 3 — method: protein binding microarray; molecule type: double-stranded DNA, one strand shown; matrix: in vitro; concentration: not given; reference: not given; direction: higher = stronger binding; measurement: E-score
Target: Histone acetyltransferase KAT6A, winged helix 1, GST fusion (KAT6A, Homo sapiens, UniProt Q92794, residues 1-85)
Setting: 8-mer, flanks averaged, mean of 2 arrays, mostly near background
Residues (chain): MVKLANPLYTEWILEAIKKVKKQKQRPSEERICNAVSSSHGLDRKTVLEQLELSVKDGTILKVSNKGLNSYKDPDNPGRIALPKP
CTGAGAAC: -0.107
AGTATACC: -0.0673
AGCCGACG: 0.446
CTAACATA: -0.096
CGATCTAA: -0.218
ACGCTCAG: 0.0936
TACACGAA: -0.00486
ATTAGTGA: -0.0361
AAACTGCT: 0.0449
AGCTATTC: -0.0793
TATTGAAA: -0.0995
ATCATGGG: -0.214
CTCGTGGA: -0.293
ACTCGCAC: 0.149
CTTAGAGC: 0.0312
CCCTCGAC: -0.0678
CCCTGATC: -0.0604
CCTTTTCG: -0.111
GGCTACCC: 0.0258
ATCCTATG: -0.175

Block 4 — method: universal PBM; molecule type: double-stranded DNA, one strand shown; matrix: in vitro; concentration: not given; direction: higher = stronger binding; measurement: E-score
Target: Sal-like protein 4, full length isoform B (SALL4, Homo sapiens, UniProt Q9UJQ4-2, residues 1-616)
Setting: 8-mer, flanks averaged, mean of replicates
Construct (chain): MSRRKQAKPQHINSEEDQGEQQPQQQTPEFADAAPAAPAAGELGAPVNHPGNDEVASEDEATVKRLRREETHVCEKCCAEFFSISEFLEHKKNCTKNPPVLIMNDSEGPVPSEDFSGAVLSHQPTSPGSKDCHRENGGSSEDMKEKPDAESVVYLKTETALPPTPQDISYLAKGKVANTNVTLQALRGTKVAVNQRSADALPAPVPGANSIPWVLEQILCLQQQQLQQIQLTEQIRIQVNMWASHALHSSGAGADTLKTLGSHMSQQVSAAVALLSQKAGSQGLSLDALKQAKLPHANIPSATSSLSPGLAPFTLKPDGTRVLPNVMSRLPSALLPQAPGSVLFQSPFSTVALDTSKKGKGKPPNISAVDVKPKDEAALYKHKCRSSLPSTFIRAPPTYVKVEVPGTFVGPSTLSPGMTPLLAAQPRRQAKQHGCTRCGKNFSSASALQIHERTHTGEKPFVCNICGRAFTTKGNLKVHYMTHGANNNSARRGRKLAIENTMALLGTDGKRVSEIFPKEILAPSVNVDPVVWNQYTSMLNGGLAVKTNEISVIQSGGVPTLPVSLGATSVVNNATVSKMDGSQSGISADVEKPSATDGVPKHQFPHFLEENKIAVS
AGACTGGC: -0.18
ATTTTATG: 0.264
CATCCACA: 0.0674
AGGGGTCG: -0.204
ATCTAGTG: 0.0832
ATCCGAAG: -0.0605
AACCGGCA: -0.3
TCATAAGA: 0.324
AATAATCC: 0.335
ATTCGAGG: -0.0267
ACAAGGAG: 0.0372
GTCAAGAC: -0.222
GAGCAGAA: -0.00094
GACGCAGC: -0.186
AGCCCTAG: -0.094
GACTATAC: 0.099
CAACGTCC: -0.242

Other studies, line by line
GGGAGUUCUACAGUCCGACGAUCGAAGAUGGUGGUUGUACAUUAUUCAUCCCGAAAAUAUAAAAAUUCAUUUUGUUUUGAAGCCCGUUAUUAAACUGGAACCGCAGUUAUAUCCCUGAGAAUGGGGCCCUUCUCUUGACAUUCCAACAGAGGAUUGAGCAUCA — bound/input enrichment (RING finger protein unkempt homolog, zinc fingers 1-6, SBP tag (UNK, Homo sapiens, UniProt Q9C0B0, residues 30-357); RNA Bind-n-Seq; RNA, in vitro; 100 nM, RNA with constant flanks, ends assumed; reference: input RNA pool, higher = stronger binding): 0.844 ratio
